Measurements from different studies.
Lines come from different studies, so protocols differ. ± marks the error that the study gave.

| SMILES | assay | test system | setting | Cmax |
| --- | --- | --- | --- | --- |
| CCCCCCCC/C=C\CCCCCCCCOP(O)(O)=S.N | – | mouse, female, nonirradiated | sc, dose not given | 302 ng/mL |
| C[C@@](O)(C(F)F)[C@H](NC(=O)c1ccc(C#CC#CC2CC2)cc1)C(=O)NO | – | CD-1 mouse | oral, 40 mg/kg, fasted | 14700 ± 2700 ng/mL |
| CC(C)(CCCC/C=C/CCCCCC(C)(C)C(=O)O)C(=O)O | – | ICR mouse, plasma | oral, 10 mg/kg | 25600 ng/mL |
| CC(=O)N[C@@H](Cc1ccc(O)cc1)C(=O)N[C@@H](CC(C)C)C(=O)N[C@@H](CS)C(=O)N[C@@H](CO)C(=O)N[C@@H](CO)C(=O)N[C@@H](CC(N)=O)C(=O)N[C@@H](CC(N)=O)C(=O)N[C@@]1(C)CCCC=CCCC[C@@](C)(C(=O)N[C@@H](CCCCN)C(=O)N[C@@H](Cc2ccccc2)C(=O)N[C@@H](CCCNC(=N)N)C(=O)N[C@@H](CCCNC(=N)N)C(=O)NCC(=O)NCC(=O)N[C@@H](CO)C(=O)NCC(=O)NCC(=O)N[C@H](C(=O)N[C@@H](CO)C(=O)N[C@@H](Cc2ccccc2)C(=O)N[C@@]2(C)CCCC=CCCC[C@@](C)(C(=O)N[C@@H](Cc3c[nH]c4ccccc34)C(=O)N[C@@H](CC(C)C)C(=O)N[C@@H](Cc3c[nH]c4ccccc34)C(=O)N3CCC[C@H]3C(N)=O)NC(=O)[C@H](Cc3c[nH]c4ccccc34)NC(=O)[C@H](Cc3ccccc3)NC(=O)[C@H](CCC(N)=O)NC2=O)[C@@H](C)O)NC(=O)[C@H](CCCNC(=N)N)NC(=O)[C@H](CCC(=O)O)NC(=O)[C@H](CCCNC(=N)N)NC1=O | – | C57BL/6J mouse, male, plasma | intraperitoneal, dose not given | 104000 ng/mL |
| C/C(=N\OCCCN1CCCCC1)c1ccc(C(F)(F)F)cc1 | – | C57BL/6 mouse | intravenous, 5 mg/kg | 279 ± 4.51 ng/mL |
| CC[C@H](C)[C@H](NC(=O)CNC(=O)[C@@H](NC(=O)[C@H](Cc1ccc(O)cc1)NC(=O)[C@@H](NC(=O)[C@H](CO)NC(=O)[C@@H](NC(=O)[C@H](C)NC(=O)[C@@H]1CCCN1C(=O)[C@@H](NC(=O)[C@H](Cc1ccccc1)NC(=O)[C@H](CCCCN)NC(=O)[C@H](CCC(=O)O)NC(=O)[C@H](Cc1ccc(O)cc1)NC(=O)[C@H](CC(C)C)NC(=O)[C@H](CC(=O)O)NC(=O)[C@H](CCCNC(=N)N)NC(=O)[C@H](CC(C)C)NC(=O)[C@H](CCCCN)NC(=O)[C@H](CCC(=O)O)NC(=O)[C@H](Cc1ccccc1)NC(=O)[C@@H](NC(=O)[C@H](CCC(=O)O)NC(=O)[C@H](CCCCN)NC(=O)[C@H](CC(C)C)NC(=O)[C@H](Cc1ccc(O)cc1)NC(=O)[C@@H](N)CC(=O)O)C(C)C)[C@@H](C)O)C(C)C)[C@@H](C)O)[C@@H](C)O)C(=O)N[C@@H](Cc1ccccc1)C(=O)N[C@H](C(=O)N[C@@H](CC(=O)O)C(=O)N[C@@H](CCC(N)=O)C(=O)N[C@H](C(=O)N[C@@H](CC(C)C)C(=O)N[C@@H](CO)C(=O)N[C@H](C(=O)N[C@@H](CC(C)C)C(=O)N[C@@H](CCCCN)C(=O)NCC(=O)N[C@@H](CCC(=O)O)C(=O)N[C@@H](CCC(=O)O)C(=O)O)C(C)C)C(C)C)[C@@H](C)O | – | C57BL/6 mouse, plasma | subcutaneous, 10 mg/kg | 150000 ng/mL |
| CC(C)N1CCCCC1C(=O)NC(Cc1ccc(-c2ccccc2)cc1)B(O)O (stereo not shown) | – | SCID mouse, P. falciparum model, blood | oral, 25 mg/kg once daily for 4 days, 1 h | 0.609 µM |
| CCC(CC)OC1C=C(C(=O)OC(C)OC(=O)C(N)C(C)C)CC(NC(=N)N)C1NC(C)=O (mixture of isomers) | – | mouse (fasted), plasma | oral, 10 mg/kg | 541 ± 227 ng/mL |
| CN1CCN(c2cccc(Nc3cc4c(cn3)cc(-c3cccc(O)c3)c(=O)n4C)c2)CC1 | – | mouse | intraperitoneal, 30 mg/kg/day | 42 µM |
| N#CC1(c2ccc3c(N)ncnn23)OC(COP(=O)(O)OP(=O)(O)OP(=O)(O)O)C(O)C1O (stereo not shown) | LC-MS/MS | CD-1 mouse, kidney | oral, 100 mg/kg of remdesivir | 1390 nmol/kg |

Repeated from above:
| SMILES | assay | test system | setting | Cmax |
| --- | --- | --- | --- | --- |
| CC[C@H](C)[C@H](NC(=O)CNC(=O)[C@@H](NC(=O)[C@H](Cc1ccc(O)cc1)NC(=O)[C@@H](NC(=O)[C@H](CO)NC(=O)[C@@H](NC(=O)[C@H](C)NC(=O)[C@@H]1CCCN1C(=O)[C@@H](NC(=O)[C@H](Cc1ccccc1)NC(=O)[C@H](CCCCN)NC(=O)[C@H](CCC(=O)O)NC(=O)[C@H](Cc1ccc(O)cc1)NC(=O)[C@H](CC(C)C)NC(=O)[C@H](CC(=O)O)NC(=O)[C@H](CCCNC(=N)N)NC(=O)[C@H](CC(C)C)NC(=O)[C@H](CCCCN)NC(=O)[C@H](CCC(=O)O)NC(=O)[C@H](Cc1ccccc1)NC(=O)[C@@H](NC(=O)[C@H](CCC(=O)O)NC(=O)[C@H](CCCCN)NC(=O)[C@H](CC(C)C)NC(=O)[C@H](Cc1ccc(O)cc1)NC(=O)[C@@H](N)CC(=O)O)C(C)C)[C@@H](C)O)C(C)C)[C@@H](C)O)[C@@H](C)O)C(=O)N[C@@H](Cc1ccccc1)C(=O)N[C@H](C(=O)N[C@@H](CC(=O)O)C(=O)N[C@@H](CCC(N)=O)C(=O)N[C@H](C(=O)N[C@@H](CC(C)C)C(=O)N[C@@H](CO)C(=O)N[C@H](C(=O)N[C@@H](CC(C)C)C(=O)N[C@@H](CCCCN)C(=O)NCC(=O)N[C@@H](CCC(=O)O)C(=O)N[C@@H](CCC(=O)O)C(=O)O)C(C)C)C(C)C)[C@@H](C)O | – | C57BL/6 mouse, plasma | subcutaneous, 10 mg/kg | 150000 ng/mL |
